Experimental data gathered from unrelated publications.
Compare with care: the assays were run in different laboratories.
Organism: Staphylococcus aureus

CC1C=CC=CC(C)C2C=CC3CC(C)(O)C(F)C(C)C3C2C(=O)C(Cl)(Cl)C(=O)C(C)C(=O)O1 (centres unmarked)
MIC (microbial growth, broth dilution; NEWMAN): 0.2 µg/mL

CC(C)CNCc1cc(N(C)C)c2c(c1O)C(=O)C1=C(O)[C@]3(O)C(=O)C(C(N)=O)=C(O)[C@@H](N(C)C)[C@@H]3C[C@@H]1C2
MIC (microbial growth; MRSA): 1 µg/mL

CCN(CC)CCCN1/C(=C/c2cc(C)[n+](C)c3ccccc23)Sc2ccccc21
MIC (microbial growth, broth dilution; ATCC43300 MRSA): 4 µg/mL

CCCCOC1C(C)C2C(C=CC3C(C)C=CC=CC(C)OC(=O)C(C)C(=O)C(Cl)(Cl)C(=O)C32)CC1(C)O (centres unmarked)
MIC (microbial growth, broth dilution; NEWMAN): 1.6 µg/mL

CCN(CC)CCCN1/C(=C/c2cc[n+](C)c3ccccc23)Sc2ccccc21
MIC (microbial growth, broth dilution; MRSA): 16 µg/mL

CN(C)c1cc(CNCc2ccc(O)cc2)c(O)c2c1C[C@H]1C[C@H]3[C@H](N(C)C)C(O)=C(C(N)=O)C(=O)[C@@]3(O)C(O)=C1C2=O
MIC (microbial growth, broth dilution): 4 µg/mL

Clc1ccc(CSc2nnc(C34CC5CC(CC(C5)C3)C4)n2-c2ccccc2)cc1
MIC (two-fold dilution; IFO 3060; 24 h, 36 °C): 8 µg/mL

C=CCOC(=O)[C@]12CS[C@H](c3ccccc3)N1C(=O)/C(=C(\O)C1CCCCC1)C2=O
MIC (broth dilution; MRSA; with: Fe3+, Ca2+, Mg2+, Zn2+ at blood levels): 7.81 µg/mL

CCCSC1COC(=O)N1/N=C/c1ccc([N+](=O)[O-])o1 (centres unmarked)
MIC (microbial growth, broth dilution; ATCC29213; 18 h): 12.5 µg/mL

CN(C)c1cc(CN2CCCCCC2)c(O)c2c1C[C@H]1C[C@H]3[C@H](N(C)C)C(O)=C(C(N)=O)C(=O)[C@@]3(O)C(O)=C1C2=O
MIC (microbial growth, broth dilution): 1 µg/mL

CN1/C(=C/C=C/c2cc(-c3ccccc3)cc(-c3ccccc3)[o+]2)C(C)(C)c2ccccc21
MIC (microbial growth, broth dilution; MRSA): 0.5 µg/mL

CNC(CC(C)C)C(=O)NC1C(=O)NC(CC(N)=O)C(=O)NC2C(=O)NC3C(=O)NC(C(=O)NC(C(=O)O)c4cc(O)cc(O)c4-c4cc3ccc4O)C(O)c3ccc(c(Cl)c3)Oc3cc2cc(c3OC2OC(CO)C(O)C(O)C2OC2CC(C)(NC(=O)CCCCCCCC[N+]3(C)CCOCC3)C(O)C(C)O2)Oc2ccc(cc2Cl)C1O (centres unmarked)
MIC (agar dilution; MRSA clinical isolate MRSA3): 512 µg/mL

c1ccc(CN2CCOCCOCCN(CCCCCCCCCCN3CCOCCOCCN(CCCCCCCCCCN4CCOCCOCCN(Cc5ccccc5)CCOCCOCC4)CCOCCOCC3)CCOCCOCC2)cc1
MIC (microbial growth; MRSA USA100; drug-resistant strain): 6 µM

COc1cc(Cc2cnc(N)nc2N)cc(/C=C/C(=O)N2N=Cc3ccccc3C2C=C(C)C)c1OC (centres unmarked)
MIC (microbial growth, broth dilution; ATCC29213): 0.125 µg/mL

CN(C)c1cc(CNCC2CCCCC2)c(O)c2c1C[C@H]1C[C@H]3[C@H](N(C)C)C(O)=C(C(N)=O)C(=O)[C@@]3(O)C(O)=C1C2=O
MIC (MRSA 5, Tet M ribosome protection): 1 µg/mL

NC[C@@H]1O[C@H](O[C@H]2[C@@H](O)[C@H](O[C@@H]3[C@@H](O)[C@H](N)C[C@H](N)[C@H]3O[C@H]3O[C@H](CO)[C@@H](OCCO)[C@H](O)[C@H]3N)O[C@@H]2CO)[C@H](N)[C@@H](O)[C@@H]1O
MIC (broth microdilution; MRSA isolate AG 038): 32 µg/mL

CN(C)c1cc(CN2CCCCC2)c(O)c2c1C[C@H]1C[C@H]3[C@H](N(C)C)C(O)=C(C(N)=O)C(=O)[C@@]3(O)C(O)=C1C2=O
MIC (RN4250, Tet K efflux): 0.25 µg/mL

CNC(CC(C)C)C(=O)NC1C(=O)NC(CC(N)=O)C(=O)NC2C(=O)NC3C(=O)NC(C(=O)NC(C(=O)O)c4cc(O)cc(O)c4-c4cc3ccc4O)C(O)c3ccc(c(Cl)c3)Oc3cc2cc(c3OC2OC(CO)C(O)C(O)C2OC2CC(C)(NC(=O)CCCCCC[N+]3(C)CCOCC3)C(O)C(C)O2)Oc2ccc(cc2Cl)C1O (centres unmarked)
MIC (agar dilution; MRSA clinical isolate MRSA3): 512 µg/mL

CCC1(C)CCN(Cc2cc(N(C)C)c3c(c2O)C(=O)C2=C(O)[C@]4(O)C(=O)C(C(N)=O)=C(O)[C@@H](N(C)C)[C@@H]4C[C@@H]2C3)CC1
MIC (microbial growth, broth dilution): 1 µg/mL

CC[C@H](C)[C@H](NC(=O)CNC(=O)[C@H](CC(N)=O)NC(=O)[C@H](CCCNC(=N)N)NC(=O)[C@@H](NC(=O)[C@H](CC(N)=O)NC(=O)[C@H](CCCNC(=N)N)NC(=O)CNC(=O)[C@H](CCSC)NC(=O)[C@H](CCCCN)NC(=O)[C@H](CCC(=O)O)NC(=O)[C@@H](NC(=O)[C@H](CCCCN)NC(=O)[C@H](CCCCN)NC(=O)[C@H](Cc1ccccc1)NC(=O)[C@@H](NC(=O)[C@H](CCCCN)NC(=O)[C@H](Cc1c[nH]c2ccccc12)NC(=O)[C@@H](N)CCCCN)C(C)C)[C@@H](C)CC)[C@@H](C)CC)C(=O)N[C@H](C(=O)N[C@@H](CCCCN)C(=O)N[C@@H](C)C(=O)NCC(=O)N1CCC[C@H]1C(=O)N[C@@H](C)C(=O)N[C@H](C(=O)N[C@@H](C)C(=O)N[C@H](C(=O)N[C@@H](CC(C)C)C(=O)NCC(=O)N[C@@H](CCC(=O)O)C(=O)N[C@@H](C)C(=O)N[C@@H](CCCCN)C(=O)N[C@@H](C)C(=O)N[C@@H](CC(C)C)C(N)=O)C(C)C)[C@@H](C)CC)C(C)C
MIC (ATCC 6538): inactive

A few entries again:
CCN(CC)CCCN1/C(=C/c2cc(C)[n+](C)c3ccccc23)Sc2ccccc21
MIC (microbial growth, broth dilution; ATCC43300 MRSA): 4 µg/mL
